Experimental data of several laboratories.
Compare with care: the assays were run in different laboratories. In brackets after ≈: the same amount, converted by molar mass.
Sequence of UniProt Q08345 (whole entry, looked up): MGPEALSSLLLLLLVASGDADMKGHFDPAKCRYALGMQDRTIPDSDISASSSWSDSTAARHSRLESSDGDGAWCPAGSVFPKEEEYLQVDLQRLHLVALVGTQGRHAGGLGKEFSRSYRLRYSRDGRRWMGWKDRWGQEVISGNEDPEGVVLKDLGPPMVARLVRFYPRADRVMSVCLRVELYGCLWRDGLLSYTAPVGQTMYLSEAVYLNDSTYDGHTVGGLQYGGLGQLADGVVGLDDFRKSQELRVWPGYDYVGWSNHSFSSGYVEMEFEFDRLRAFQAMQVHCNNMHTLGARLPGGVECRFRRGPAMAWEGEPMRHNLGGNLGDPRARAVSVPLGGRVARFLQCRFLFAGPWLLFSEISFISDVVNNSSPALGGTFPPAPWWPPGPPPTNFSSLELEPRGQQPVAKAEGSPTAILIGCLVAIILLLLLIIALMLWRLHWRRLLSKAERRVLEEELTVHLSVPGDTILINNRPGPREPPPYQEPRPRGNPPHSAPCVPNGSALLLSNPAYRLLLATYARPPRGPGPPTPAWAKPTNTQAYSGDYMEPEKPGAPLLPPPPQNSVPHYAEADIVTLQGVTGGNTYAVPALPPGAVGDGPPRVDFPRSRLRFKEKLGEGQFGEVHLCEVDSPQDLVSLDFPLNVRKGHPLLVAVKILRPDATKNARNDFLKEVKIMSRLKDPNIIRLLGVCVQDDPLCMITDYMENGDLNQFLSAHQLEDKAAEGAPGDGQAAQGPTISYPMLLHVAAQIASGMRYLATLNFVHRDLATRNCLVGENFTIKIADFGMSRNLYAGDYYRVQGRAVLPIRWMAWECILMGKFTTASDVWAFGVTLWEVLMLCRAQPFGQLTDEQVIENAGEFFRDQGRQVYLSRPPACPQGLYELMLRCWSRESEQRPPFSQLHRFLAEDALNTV
Sequence of UniProt O95747 (whole entry, looked up): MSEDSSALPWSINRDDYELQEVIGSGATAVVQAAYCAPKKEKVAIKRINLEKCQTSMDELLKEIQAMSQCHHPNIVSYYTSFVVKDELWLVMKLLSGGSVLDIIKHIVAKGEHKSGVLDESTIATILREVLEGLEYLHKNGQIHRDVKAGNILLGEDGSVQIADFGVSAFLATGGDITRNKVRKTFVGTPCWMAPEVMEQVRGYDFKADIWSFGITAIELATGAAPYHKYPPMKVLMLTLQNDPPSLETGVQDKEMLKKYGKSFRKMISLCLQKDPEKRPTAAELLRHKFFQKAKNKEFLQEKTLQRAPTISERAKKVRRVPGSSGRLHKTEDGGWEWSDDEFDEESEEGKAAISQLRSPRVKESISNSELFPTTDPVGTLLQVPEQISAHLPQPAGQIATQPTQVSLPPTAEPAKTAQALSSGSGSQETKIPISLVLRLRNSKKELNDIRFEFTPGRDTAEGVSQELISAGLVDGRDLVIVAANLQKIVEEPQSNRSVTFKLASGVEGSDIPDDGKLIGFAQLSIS
Sequence of UniProt P53671 (whole entry, looked up): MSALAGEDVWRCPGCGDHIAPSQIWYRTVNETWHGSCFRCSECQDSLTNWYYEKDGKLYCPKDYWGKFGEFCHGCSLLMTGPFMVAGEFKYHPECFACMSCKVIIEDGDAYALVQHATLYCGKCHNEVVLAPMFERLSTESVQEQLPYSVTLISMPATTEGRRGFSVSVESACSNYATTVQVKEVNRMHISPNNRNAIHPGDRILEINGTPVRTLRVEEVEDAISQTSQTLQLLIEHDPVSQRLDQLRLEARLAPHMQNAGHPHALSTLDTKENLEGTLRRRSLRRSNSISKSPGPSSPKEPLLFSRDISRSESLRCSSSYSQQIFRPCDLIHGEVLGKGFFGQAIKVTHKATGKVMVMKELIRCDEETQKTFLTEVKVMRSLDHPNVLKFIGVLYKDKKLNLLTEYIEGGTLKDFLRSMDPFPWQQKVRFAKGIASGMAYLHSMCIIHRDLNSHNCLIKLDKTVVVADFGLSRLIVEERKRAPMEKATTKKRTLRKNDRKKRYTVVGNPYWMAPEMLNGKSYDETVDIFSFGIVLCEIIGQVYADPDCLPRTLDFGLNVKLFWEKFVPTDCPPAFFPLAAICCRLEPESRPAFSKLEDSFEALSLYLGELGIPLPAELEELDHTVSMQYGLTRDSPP
Sequence of UniProt Q9P2K8 (whole entry, unmodified, looked up): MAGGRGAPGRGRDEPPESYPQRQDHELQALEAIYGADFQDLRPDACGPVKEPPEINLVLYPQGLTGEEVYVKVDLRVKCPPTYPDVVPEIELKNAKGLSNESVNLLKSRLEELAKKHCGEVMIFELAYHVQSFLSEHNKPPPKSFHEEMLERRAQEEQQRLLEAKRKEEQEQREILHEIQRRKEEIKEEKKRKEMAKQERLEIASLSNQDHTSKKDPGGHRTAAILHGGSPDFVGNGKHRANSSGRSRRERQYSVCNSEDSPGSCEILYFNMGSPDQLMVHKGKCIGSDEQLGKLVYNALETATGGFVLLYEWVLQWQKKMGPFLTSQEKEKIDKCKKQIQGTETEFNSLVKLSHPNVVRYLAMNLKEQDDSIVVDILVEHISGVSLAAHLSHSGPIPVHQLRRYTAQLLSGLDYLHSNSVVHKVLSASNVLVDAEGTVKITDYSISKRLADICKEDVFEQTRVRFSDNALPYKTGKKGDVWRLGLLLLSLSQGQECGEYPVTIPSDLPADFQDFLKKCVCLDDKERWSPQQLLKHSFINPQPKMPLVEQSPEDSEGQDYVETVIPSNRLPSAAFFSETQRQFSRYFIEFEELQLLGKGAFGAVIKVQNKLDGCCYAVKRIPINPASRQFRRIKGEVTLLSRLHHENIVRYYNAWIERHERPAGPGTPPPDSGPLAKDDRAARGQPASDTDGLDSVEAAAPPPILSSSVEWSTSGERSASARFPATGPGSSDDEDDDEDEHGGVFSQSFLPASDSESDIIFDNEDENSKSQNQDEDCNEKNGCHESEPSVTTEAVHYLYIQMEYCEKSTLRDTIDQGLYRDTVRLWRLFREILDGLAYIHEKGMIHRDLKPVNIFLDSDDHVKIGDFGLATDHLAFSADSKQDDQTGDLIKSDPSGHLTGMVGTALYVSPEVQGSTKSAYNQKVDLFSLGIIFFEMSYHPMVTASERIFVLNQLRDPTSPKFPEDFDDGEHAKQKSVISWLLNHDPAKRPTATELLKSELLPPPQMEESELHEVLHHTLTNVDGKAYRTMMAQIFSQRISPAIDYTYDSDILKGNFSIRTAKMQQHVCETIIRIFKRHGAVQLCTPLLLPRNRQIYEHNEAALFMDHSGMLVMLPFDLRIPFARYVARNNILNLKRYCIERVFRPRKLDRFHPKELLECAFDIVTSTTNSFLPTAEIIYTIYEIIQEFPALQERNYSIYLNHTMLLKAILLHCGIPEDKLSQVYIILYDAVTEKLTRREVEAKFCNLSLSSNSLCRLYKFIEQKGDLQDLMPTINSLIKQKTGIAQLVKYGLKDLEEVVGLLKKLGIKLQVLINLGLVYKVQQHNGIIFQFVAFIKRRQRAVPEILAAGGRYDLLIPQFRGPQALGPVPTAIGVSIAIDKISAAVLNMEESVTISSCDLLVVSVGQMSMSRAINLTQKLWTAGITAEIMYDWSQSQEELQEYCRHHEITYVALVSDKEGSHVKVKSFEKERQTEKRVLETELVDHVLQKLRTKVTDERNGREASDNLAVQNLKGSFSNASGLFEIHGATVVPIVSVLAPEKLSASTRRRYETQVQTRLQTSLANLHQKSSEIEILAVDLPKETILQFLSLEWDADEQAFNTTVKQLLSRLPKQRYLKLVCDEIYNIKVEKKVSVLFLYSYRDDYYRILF

With `Nc1ncc(-c2nc(N3CCOCC3)nc(N3CCOCC3)n2)c(C(F)F)n1` the remaining binding was 69% (Epithelial discoidin domain-containing receptor 1 (DDR1, Homo sapiens, UniProt Q08345); cell-free assay, competition with immobilised ligand; 10 µM).
`OC(c1cc(C(F)(F)F)nc2c(C(F)(F)F)cccc12)C1CCCCN1` (stereo not shown) gave an EC50 of 20 nM (Plasmodium falciparum; parasite growth, SYBR Green; 3D7; 72 h).
`O[C@@H](CN1CCN(C(c2ccccc2)c2ccccc2)CC1)c1cc(Cl)cc2c1-c1ccc(Cl)cc1C2` has an IC50 of 57.9 nM (Plasmodium falciparum; parasite growth, SYBR Green; W2; 48 h, drug-resistant strain, blood stage).
`Cc1ccc(NC(=O)c2sc3nc(C)cc(C(F)(F)F)c3c2N)cc1` has an IC50 of greater than 100000 nM (Mycobacterium tuberculosis; microbial growth; H37RV).
`COC(=O)c1cc(-c2cccc(NC(=O)Nc3cccc(Cl)c3Cl)c2)on1` gave an MIC of greater than 64 µg/mL (Klebsiella pneumoniae; microbial growth, broth dilution; BAA1705).
For `COc1ncccc1-c1cnn2ccc(N3CCN(C(=O)OC(C)C)CC3)nc12`, the remaining binding was 100% (Serine/threonine-protein kinase OSR1 (OXSR1, Homo sapiens, UniProt O95747); binding, competition with immobilised ligand; 1 µM).
With `[2H]c1c([2H])c([C@]2([2H])CCCN2C(=O)C(C)(C)Oc2ccc3cn[nH]c3c2)c([2H])c([2H])c1C([2H])([2H])[2H]` the remaining binding was 100% (eIF-2-alpha kinase GCN2, C-terminal kinase domain (EIF2AK4, Homo sapiens, UniProt Q9P2K8, S808G); binding, competition with immobilised ligand; 1 µM).
`COC(=O)c1cc(-c2cccc(NC(=S)Nc3ccc(C)cc3)c2)on1` has an MIC of greater than 64 µg/mL (Pseudomonas aeruginosa; microbial growth, broth dilution; ATCC27853).
`C#Cc1cccc(C(=O)NN=Cc2cc(C#C)ccc2O)c1` gave an MIC80 of 0.06 µg/mL (≈ 0.208 µM) (Candida albicans; microbial growth; pH 7.4).
The MIC of `COC(=O)c1cc(-c2cccc(NC(=O)Nc3ccc(C)c(Cl)c3)c2)on1` is reported as greater than 64 µg/mL (Mycolicibacterium fortuitum; microbial growth, broth dilution; ATCC6841; 48 h).
With `COc1ccc(-c2cc(C)c3c(N)c(C(=O)Nc4cccc(C)c4C)sc3n2)cc1` the IC50 was greater than 100000 nM (Mycobacterium tuberculosis; microbial growth; H37RV).
`C#Cc1cccc(C=NNC(=O)c2ccc(Br)cc2Br)c1O` has an MIC80 of 0.015 µg/mL (≈ 0.0355 µM) (Cryptococcus neoformans; microbial growth, broth dilution; pH 7.4).
The MIC of `CCOC(=O)c1cc(-c2cccc(NC(=O)Nc3ccc(Cl)c(Cl)c3)c2)on1` is reported as greater than 64 µg/mL (Mycolicibacterium fortuitum; microbial growth, broth dilution; ATCC6841; 48 h).
For `Cc1ccc(N2CCc3c(-c4cc5cccnc5nc4C)cc(C)nc32)c(Cl)c1`, the EC50 was 87.2 nM (Plasmodium falciparum; parasite growth, SYBR Green; 3D7; 72 h).
With `Cc1nn(C)cc1-c1nc2c(N3CCN(Cc4ccc(Cl)cc4)CC3)c(Cl)cnc2[nH]1` the remaining binding was 75% (LIM domain kinase 2 (LIMK2, Homo sapiens, UniProt P53671); binding, competition with immobilised ligand; 1 µM).
With `COC(=O)c1cc(-c2cccc(NC(=O)Nc3cccc(Cl)c3)c2)on1` the MIC was greater than 64 µg/mL (Mycobacteroides chelonae; microbial growth, broth dilution; ATCC35752; 48 h).
With `OC(Cn1cncn1)(Cn1cncn1)c1ccc(F)cc1F` the MFC was greater than 64 µM (Candida albicans; microbial killing, broth dilution; SP3902; 48 h).
`O=C(NNc1cccc(Cl)c1)c1nnc(C23CC4CC(CC(C4)C2)C3)o1` gave an EC50 of greater than 50 µg/mL (Rhizoctonia solani; microbial growth).
`C#Cc1ccc(O)c(C=NNC(=O)c2cc(Br)cc(Br)c2O)c1` gave an MIC80 of 0.015 µg/mL (≈ 0.0342 µM) (Candida albicans; microbial growth; pH 7.4).
`C[C@@H]1[C@H](O)[C@@H](C)/C=C/C=C/C=C/C=C/C=C/C=C/C=C/[C@H](O[C@@H]2O[C@H](C)[C@@H](O)[C@H](N)[C@@H]2O)C[C@@H]2O[C@](O)(C[C@@H](O)C[C@@H](O)[C@H](O)CC[C@@H](O)C[C@@H](O)CC(=O)O[C@H]1C)C[C@H](O)[C@H]2C(=O)O` gave an MFC of 1 µM (≈ 0.924 µg/mL) (Candida albicans; microbial killing, broth dilution; SP3902; 48 h).
`Nc1ncnc2c([C@@H]3N[C@H](CO)[C@@H](O)[C@H]3O)c[nH]c12` has an inhibition of 100% (Dengue virus; viral replication; Vero 76, DENV2; 296 µM).
For `C#Cc1ccc(C=NNC(=O)c2ccc(COC(C)C)cc2)c(O)c1`, the MIC80 was 0.015 µg/mL (≈ 0.0446 µM) (Cryptococcus neoformans; microbial growth, broth dilution; pH 7.4).
For `O=C(NNc1ccc(F)c(F)c1)c1nnc(CC23CC4CC(CC(C4)C2)C3)o1`, the EC50 was greater than 12.5 µg/mL (Rhizoctonia solani; microbial growth).
`COC(=O)c1cc(-c2cccc(NC(=O)Nc3ccccc3OC)c2)on1` gave an MIC of greater than 64 µg/mL (Klebsiella pneumoniae; microbial growth, broth dilution; BAA1705).
`CC(=O)c1c(O)c(C)c(O)c(Cc2c(O)c3c(c(C(=O)/C=C/c4ccccc4)c2O)OC(C)(C)C=C3)c1O` gave an IC50 of 3640 nM (Betacoronavirus 1; viral replication; MRC5, OC43).
`N.N.[Cl][Pt][Cl]` has an IC50 of 820 nM (HuT78; cell growth or viability, ATP luminescence; 72 h).
For `C#Cc1ccc(O)c(C=NNC(=O)c2ccc(C3(C(F)(F)F)N=N3)cc2)c1`, the MIC80 was no more than 0.25 µg/mL (Candida albicans; microbial growth; pH 7.4).
`O=C(NNc1ccc(Cl)cc1)c1nnc(C23CC4CC(CC(C4)C2)C3)o1` has an EC50 of greater than 25 µg/mL (Rhizoctonia solani; microbial growth).
With `COC(=O)c1cc(-c2cccc(NC(=S)Nc3ccccc3Cl)c2)on1` the MIC was greater than 64 µg/mL (Mycobacteroides chelonae; microbial growth, broth dilution; ATCC35752; 48 h).
`C#Cc1cccc(C=NNC(=O)c2ccc(Br)cc2)c1O` has an MIC80 of 0.25 µg/mL (≈ 0.728 µM) (Candida albicans; microbial growth; pH 7.4).
For `CCc1nc2nc(C)cc(Nc3cc(C)cc(C)c3)n2n1`, the EC50 was 2690 nM (Plasmodium falciparum; parasite growth, SYBR Green; 3D7; 72 h).

A few entries again:
`O[C@@H](CN1CCN(C(c2ccccc2)c2ccccc2)CC1)c1cc(Cl)cc2c1-c1ccc(Cl)cc1C2` has an IC50 of 57.9 nM (Plasmodium falciparum; parasite growth, SYBR Green; W2; 48 h, drug-resistant strain, blood stage).
For `CCc1nc2nc(C)cc(Nc3cc(C)cc(C)c3)n2n1`, the EC50 was 2690 nM (Plasmodium falciparum; parasite growth, SYBR Green; 3D7; 72 h).
